Published values gathered from unrelated publications.
Every numbered part comes from another study and shows a few of its results, in no order.

Block 1 — method: protein binding microarray; molecule type: double-stranded DNA, one strand shown; matrix: in vitro; tested at: not given; relative to: not given; reading: higher = stronger binding
Target: Histone acetyltransferase KAT6A, winged helix 1, GST fusion (KAT6A, Homo sapiens, UniProt Q92794, residues 1-85)
Notes: 8-mer, flanks averaged, mean of 2 arrays, mostly near background
Target sequence (chain): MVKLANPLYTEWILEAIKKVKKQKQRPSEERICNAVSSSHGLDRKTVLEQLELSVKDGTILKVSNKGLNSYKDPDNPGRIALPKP
Strand | E-score
AGCGCACA | 0.14
AGCTAGTC | -0.0853
AGTAAATA | -0.103

Block 2 — method: aptamer microarray, sandwich; molecule type: DNA with 2'F-ANA; matrix: in vitro; tested at: 200 nM; with: Cy3 exosite-II aptamer, 400 nM; reading: higher = stronger binding
Target: Prothrombin, mature alpha-thrombin (F2, Homo sapiens, UniProt P00734)
Notes: whole 15-mer aptamer, many near background
Strand | mean fluorescence intensity
GGTTGGTGTGGTTGG (2'F-ANA at 2 4 6 7 9 11 13 14) | 70.2 a.u.
GGTTGGTGTGGTTGG (2'F-ANA at 1 3 8 9 10 11 13 15) | 78.1 a.u.
GGTTGGTGTGGTTGG (2'F-ANA at 2 3 7 8 11 14 15) | 465 a.u.

Further values, each from its own experiment
Molecule | target | test | system | setting | scale | measurement | value
PhoQ, residues 284 288 289 292 302 303 TLSLKA | PhoP, residues 12 14 15 18 19 FWNTL (Escherichia coli, UniProt P23836) | Sort-seq, item: YFP reporter | E. coli | PhoQ-PhoP variant library, with: 10 µM Mg2+ | relative to: high Mg2+ state, higher = stronger signaling | fold induction | 2.07
GCTCTCCA | Sal-like protein 4, full length isoform B (SALL4, Homo sapiens, UniProt Q9UJQ4-2, residues 1-616) | universal PBM | double-stranded DNA, one strand shown, in vitro | not given, 8-mer, flanks averaged, mean of replicates | higher = stronger binding | E-score | -0.0769

For quick reference, copied from above (block 1):
Strand | E-score
AGCGCACA | 0.14
